# Measured values of several laboratories.
# Every numbered part comes from another study and shows a few of its results, in no order. Substitutions count along the parent as printed.

# Set 1
# Target: ABI1, truncated, D143A, DHFR fusion (Arabidopsis thaliana)
# Technique: DHFR PCA, deep sequencing
# Medium: yeast
# Notes: methotrexate growth selection, single substitutions
# With: (+)-ABA 200 µM
# Reference: wild-type fitted maximum
# Reading: higher = stronger binding
# Starting sequence: PYL1, truncated, DHFR fusion (Arabidopsis thaliana); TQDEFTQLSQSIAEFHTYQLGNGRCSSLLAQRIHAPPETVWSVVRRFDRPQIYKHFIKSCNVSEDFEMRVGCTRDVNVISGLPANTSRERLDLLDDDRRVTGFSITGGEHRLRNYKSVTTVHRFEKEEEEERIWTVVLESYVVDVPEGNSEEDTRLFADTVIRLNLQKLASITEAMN; partner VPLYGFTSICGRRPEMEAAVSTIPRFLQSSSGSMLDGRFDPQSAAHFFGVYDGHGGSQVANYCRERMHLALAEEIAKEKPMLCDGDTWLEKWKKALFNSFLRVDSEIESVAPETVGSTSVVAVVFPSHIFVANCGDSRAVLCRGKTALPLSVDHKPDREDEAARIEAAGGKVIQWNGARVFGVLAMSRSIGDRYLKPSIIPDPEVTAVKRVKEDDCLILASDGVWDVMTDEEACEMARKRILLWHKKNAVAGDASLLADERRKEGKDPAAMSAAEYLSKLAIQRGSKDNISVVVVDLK
Variant,relative binding score [%]
V62C,93.7
T154P,11.3
L93E,89.4
G108R,22.7
L169Y,1.66
L166E,5.02
F124V,113
L164A,98.4
V78N,33.6
C60D,-1.12
L94R,35.7
R155Y,40.1
T17D,81.3
I79F,105
E89H,-16.4
T135M,-8.88

# Set 2
# Target: RING finger protein unkempt homolog, zinc fingers 1-6, SBP tag (UNK, Homo sapiens, UniProt Q9C0B0, residues 30-357)
# UniProt Q9C0B0, sequence (30-357, looked up): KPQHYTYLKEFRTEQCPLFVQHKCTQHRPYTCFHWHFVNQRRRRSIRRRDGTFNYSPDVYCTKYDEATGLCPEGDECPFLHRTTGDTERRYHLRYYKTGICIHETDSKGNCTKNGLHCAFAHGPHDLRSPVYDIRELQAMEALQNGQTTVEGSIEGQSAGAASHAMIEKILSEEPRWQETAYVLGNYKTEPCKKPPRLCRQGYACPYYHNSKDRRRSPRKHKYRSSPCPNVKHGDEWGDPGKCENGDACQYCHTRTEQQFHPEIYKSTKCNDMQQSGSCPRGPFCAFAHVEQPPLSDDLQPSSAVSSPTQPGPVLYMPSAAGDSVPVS
# Technique: RNA Bind-n-Seq
# Form: RNA
# Medium: in vitro
# Tested at: 100 nM
# Notes: RNA with constant flanks, vertebrate orthologous sites, ends assumed
# Reference: input RNA pool
# Reading: higher = stronger binding
# Constant ends, left off below: GGGAGUUCUACAGUCCGACGAUC … CAACAGAGGAUUGAGCAUCA
Strand,bound/input enrichment
CUCCUAGCAUCAUACCAGCAUCUUCGCUAUCAGACGUGCACAGCUUACAAAGGAACAGUCUAGUGGUAUUGGUUAUUUUCAUUUCAAAACCUGCUUUUUUUUCCCAAGACUGAAAAAAGA,0.857 ratio
GGCAGGGCCCAGGCCCCUGUCGCUCAGAGUGGCCUAUUGGCCACUUAAGCCAGGCCAUUUUGGCUCCAUUUUUUAUUUUAACAGUGCCCUUACUACCCUGUAUAUAUGCCCGAGAUAUGG,1.31 ratio
UUUAAUUUCUUGUAUACAUGAUCUAGUCCUGUAUUAUUAUUAUUUUCUUACACGAUUGUUUGUCAGUAUGUCUGUGUCUGUCACAUUUCCUUCUCAGGCGAAGGGCUAGAGUUUAAAAAA,0.818 ratio
GUAAUGCAUUUUGUGACUUGGAUGUGGUCUGCACGGGAAGCUGCUGGCCUCUCCACAACGCAUAAAAUUUUUGUCUUUUUUUAAGAAGUUAAAACUGAAUUUAAUUUACUAAAACUCUAA,0.471 ratio
GUUGUGACCCCUUUAACAUACAUAAAAAACUAGCCAAAAAAAACUUGCAUGUAAUUGACUUAGAUGAUGCCACUUUUCUGAGUGCAAAAUUUGGCAGACAGCUUGUACCUGGUUGGAAGC,0.99 ratio
AUAAUCGCUCUAACUGUAUUCUGAAUAAAGUGUAACAUUGUGUAGCCUUUUUGUAUAAACUAGACAAAUAGAAAUGGUCCAAUUAGUUUCCUUUUUAAUAUGCUUAAAAUAAGCAGGUGG,2.04 ratio
AUUGAAAACUGAACCAUGUCUACCUAGAAAGUAACACUCUACAAAUAUCACUAAAUAAUUUAGCUAUAAUCUUUUUAAACAUUACAUUAUAUGUCAAAUAGUCAAAGUUAAAAGUAAGUA,1.17 ratio
ACAAUAGCUUCUGCUUCACUAAGAGCGUAAAAAUAGUCCCACAAAUAUAAAACUCCUAAAGAGCUAUUUUUUAAAUAAAAAUGUUUAAAUUUUGUAAAUCACUUGAUGCCACAACACAAC,1.09 ratio
GAAGAUGGUGGUUGUACAUUAUUCAUUUAGAAAAUAUAAAAAUUCAUUUUGUUUUGAAGCUAGUUAUUAAACUGGAAUAGCAGUUAUACCCCCUGAGAAUGGGGCCCUUCCCUUGACAUU,4.02 ratio
GCAGUGAAAAAGCAGCCCUUCUCCCAACCCCUUUUUCACUAGGAGAUACAAACAUUACCAUAGAAGAGCAAUUAAAUUCAAUAAAUUUAUCUUUUCAGGAUGAUCCAGACUCCAGCACCA,1.16 ratio
UCCUCAACUUGUUCUAGCUUGUGAUCCUUCAAAUCUGGAUCAUGCAUUAGUGCUAGAUUCUAGACAUUUUCACUUCUCUUUCCACUGAUCAGAGAAACAGACAUUAAAAGCAGAAAUACA,1.85 ratio

# Set 3
# Target: Ras GTPase-activating protein-binding protein 1, full length (G3BP1, Homo sapiens, UniProt Q13283)
# UniProt Q13283, sequence (whole entry, looked up): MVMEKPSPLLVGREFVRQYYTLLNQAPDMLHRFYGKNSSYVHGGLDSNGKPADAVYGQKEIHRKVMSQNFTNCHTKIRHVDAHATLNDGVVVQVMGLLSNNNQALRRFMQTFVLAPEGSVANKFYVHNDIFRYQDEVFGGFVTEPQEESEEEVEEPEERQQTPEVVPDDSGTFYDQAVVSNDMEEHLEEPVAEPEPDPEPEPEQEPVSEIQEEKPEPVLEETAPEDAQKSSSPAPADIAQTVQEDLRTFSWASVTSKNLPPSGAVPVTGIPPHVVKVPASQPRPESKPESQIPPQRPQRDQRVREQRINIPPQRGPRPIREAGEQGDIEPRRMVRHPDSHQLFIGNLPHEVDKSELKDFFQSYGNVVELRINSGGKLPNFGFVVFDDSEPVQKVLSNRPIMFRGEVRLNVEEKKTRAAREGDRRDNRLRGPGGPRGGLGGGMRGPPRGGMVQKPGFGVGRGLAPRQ
# Technique: RNA Bind-n-Seq
# Form: RNA
# Medium: in vitro
# Tested at: 200 nM
# Notes: whole 134-nt RNA, ends assumed
# With: 150 mM LiCl
# Reference: input library
# Reading: higher = stronger binding
# Each molecule: 7-deaza-guanosine replaces G
# Constant ends, left off below: GGGAGUUCUACAGUCCGACGAUC … UGGAAUUCUCGGGUGUCAAGG
Strand,log2 enrichment
UCAAGUCCUGUGCUACACAUCGUAUGUACCGAAUCGGCCCGGGCCCGGCCCGGGAAAGUAUUAUGUUACGCCGUUCGGAUCUGCACUUCC,-0.316
CCUGUGCUACACAUCGUAUGUACCGAAUCGUGUGUGUGUGUGUGUGUGUGUGUGUGUGUGUAAAGUAUUAUGUUACGCCGUUCGGAUCUG,-0.63
AGUCCUGUGCUACACAUCGUAUGUACCGAAUCGGGGAAAGGGGUUUGGGGAAAGGGGAAAGUAUUAUGUUACGCCGUUCGGAUCUGCACU,-0.459
AAGUCCUGUGCUACACAUCGUAUGUACCGAAUCGGGUUUUUGGGAAAGGGUUUGGGAAAGUAUUAUGUUACGCCGUUCGGAUCUGCACUU,-1.95
UGGCCCUGGUGGCAUGCGGGGAGGAAGAGGUGGCCUCAUGGAUCGUGGUGGUCCCGGUGGAAUGUUCGGAGGUGGCCGUGGUGGAGACAG,-0.0174
CAAGUCCUGUGCUACACAUCGUAUGUACCGAAUCGGGAAAAGGGAAAAGGAAAAGGAAAGUAUUAUGUUACGCCGUUCGGAUCUGCACUU,-1.05
CCUGUGCUACACAUCGUAUGUACCGAAUCGGGUUUUUUUGGGAAAAAGGGUUUUUUUGGGAAAGUAUUAUGUUACGCCGUUCGGAUCUGC,-2.22
CUCAAGUCCUGUGCUACACAUCGUAUGUACCGAAUCGGGAGGGAGGGGAGGGGAAAGUAUUAUGUUACGCCGUUCGGAUCUGCACUUCCA,-0.248
AAGUCCUGUGCUACACAUCGUAUGUACCGAAUCGGGUUUUUGGGUUUUUGGGAGGGAAAGUAUUAUGUUACGCCGUUCGGAUCUGCACUU,0.159
GUCCUGUGCUACACAUCGUAUGUACCGAAUCGGGGUUUUUGGGUUUUUGGGUUUUUGGGAAAGUAUUAUGUUACGCCGUUCGGAUCUGCA,-0.243
UUCAUUCUUACUUUGAAUCUAGGAUUUUAUGGAAGACCUUGGGUUAUGGAACAGAGAAAAGAACUCUUUAGAAGGUAAAUCUUCAUUAUA,-1.79

# Set 4
# Target: CCND1, cyclin fold, Cln2 fusion (human)
# Technique: yeast growth competition, sequencing
# Medium: yeast
# Notes: strong parent motif
# Reference: not given
# Reading: higher = stronger binding
# Starting sequence: RBL2 docking peptide (human); STTRRRLFVENDS; partner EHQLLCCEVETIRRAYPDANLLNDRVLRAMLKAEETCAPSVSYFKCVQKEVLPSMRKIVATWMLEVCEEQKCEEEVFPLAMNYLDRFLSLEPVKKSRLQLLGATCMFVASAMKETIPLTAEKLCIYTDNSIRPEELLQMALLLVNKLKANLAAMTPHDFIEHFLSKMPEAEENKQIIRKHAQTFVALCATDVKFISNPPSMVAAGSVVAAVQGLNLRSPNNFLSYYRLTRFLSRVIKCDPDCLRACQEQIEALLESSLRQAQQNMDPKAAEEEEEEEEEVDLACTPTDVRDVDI
Variant,normalised enrichment score
L7E,0.624
R5A,-0.213
S13V,0.919
L7I,0.391
F8T,0.451
R6P,-0.0452
R6C,1.39
D12W,0.283
D12I,0.879
T2Q,1.81
R4W,-0.145
D12R,0.389
R6W,-0.113
R6Q,2.17
R5Q,0.781
R4F,1
T2Y,0.823
E10I,-0.0981
E10Y,-0.439
R6F,0.628
F8L,-0.0116
S1Q,0.569
L7Y,-0.0485
R6E,1.04
E10K,-0.372

# Set 5
# Target: Centromere-binding protein 1, full length, N-terminal tag (CBF1, Saccharomyces cerevisiae, UniProt P17106, residues 1-351)
# UniProt P17106, sequence (whole entry, looked up): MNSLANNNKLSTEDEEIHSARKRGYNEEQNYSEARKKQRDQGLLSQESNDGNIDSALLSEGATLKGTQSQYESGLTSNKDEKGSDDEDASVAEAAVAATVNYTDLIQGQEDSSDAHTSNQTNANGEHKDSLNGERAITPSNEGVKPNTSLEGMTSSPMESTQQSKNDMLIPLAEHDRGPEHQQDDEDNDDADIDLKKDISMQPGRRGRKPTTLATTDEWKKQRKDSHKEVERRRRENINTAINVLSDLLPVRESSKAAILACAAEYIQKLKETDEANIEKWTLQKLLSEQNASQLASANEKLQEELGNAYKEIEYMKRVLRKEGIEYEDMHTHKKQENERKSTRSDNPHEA
# Technique: protein-binding microarray
# Form: double-stranded DNA, one strand shown
# Medium: in vitro
# Tested at: 0.8 µM
# Notes: whole 60-bp probe, no competitor
# Reading: higher = stronger binding
# Constant ends, left off below: … GTCTTGATTCGCTTGACGCTGCTG
Strand,fluorescence intensity [a.u.]
CTACACTACCGTAACAACGTGGTAGTTGGCAGATTC,575
TGTACGAAGCTATAGCACACGCATATAGTAGTTAGG,534
GAAACTCTCGTCAGCTTTGTCACGTATTCAACTTAG,741
CCTAACTACTATAAGTGCGTGAGATAGCTTCGTACA,528
CTATCTGAGTAGTGTCACGAACGAGGAAAAAGATTC,631
CCTAACTACTATATCCACATGCTATAGCTTCGTACA,568
GAAATAGATATTAGTCTGCTGATTATCTAGTTTTAG,618
GAACTACTGGAATGTCTGATGTCTTCGCTTATATAG,544
GAATCTTGTACATGTACCACCACGATAAGGCTGTAG,515
GAAAGGGATCCACGTCACGCCGTGCGCGGAACGTAG,997
TGTACGAAGCTATATGGCGTGGGTATAGTAGTTAGG,511
CTATCTGATGAAGGGCACGTATAGGTCAGTGACTTC,548
CTATCTACGAACCATGTGATTATTAGCACTGTATTC,2520
CTACCCACCATCGACCACGTTTCGTCACCGGTCTTC,563
CTAACTTTCCAGATTCAGATCACAGCAATATAGTTC,590
GAATGCTATGTTCGTCACGGTACAAACTTTGCGTAG,865
CTAGGACCCATACATCAGGCACTTACCCCCAGGTTC,480
CCTAACTACTATACGCACGTGCTATAGCTTCGTACA,14600
CTAAATTCCTGTAGCTACGTGATGACCTCTGCTTTC,536

# Some of these lines once more (set 1):
Variant,relative binding score [%]
L166E,5.02
C60D,-1.12
T135M,-8.88
L94R,35.7
